Measurements gathered from unrelated publications.
Numbered parts are unrelated; each lists some results of a single study.

Block 1
Target: Prothrombin, mature alpha-thrombin (F2, Homo sapiens, UniProt P00734)
Method: aptamer microarray, sandwich
Molecule type: DNA with 2'F-ANA
Sample: in vitro
Tested at: 200 nM
Notes: whole 15-mer aptamer, many near background
Added: Cy3 exosite-II aptamer, 400 nM
Reading: higher = stronger binding
Oligonucleotide: GGTTGGTGTGGTTGG
Modification | mean fluorescence intensity [a.u.]
2'F-ANA at 2 4 5 6 9 10 12 | 52.5
2'F-ANA at 2 3 4 6 8 9 10 11 13 14 | 138
2'F-ANA at 3 6 7 8 10 12 | 616
2'F-ANA at 2 3 4 5 8 10 12 15 | 165
2'F-ANA at 3 4 5 6 7 8 13 14 15 | 48.6
2'F-ANA at 1 2 4 5 6 7 8 9 10 11 15 | 53.5
2'F-ANA at 1 2 7 9 11 12 14 15 | 861
2'F-ANA at 4 8 9 10 11 12 13 14 | 61.4
2'F-ANA at 1 2 3 5 7 8 12 14 | 47.6
2'F-ANA at 1 5 6 7 9 11 13 15 | 47
2'F-ANA at 3 4 6 7 8 11 13 14 | 310
2'F-ANA at 7 9 12 14 | 239
2'F-ANA at 1 2 8 10 11 12 15 | 65.5
2'F-ANA at 1 4 7 10 11 13 14 15 | 44
2'F-ANA at 1 5 7 8 11 12 14 | 47.4
2'F-ANA at 1 3 6 7 8 9 10 11 | 84.2
2'F-ANA at 1 2 4 9 10 11 12 13 14 15 | 59.8

Block 2
Target: Interferon regulatory factor 5, full length, phosphomimetic (IRF5, Homo sapiens, UniProt Q13568-2, residues 1-514, S451D/S453D/S456D/S462D)
Method: protein-binding microarray
Molecule type: double-stranded DNA, one strand shown
Sample: in vitro
Tested at: 940 nM top
Notes: 60-bp whole probe
Added: salmon DNA 0.4 mg/ml
Reference: random background probes
Reading: higher = stronger binding
Constant ends, left off below: GCCTAGCAC … GTCTTGATTCGCTTGACGCTGCTG
Oligonucleotide | fitted relative affinity
AGAGCTTGTAGCCATCTTTGGTGCTAG | -0.534 z-score
TCAATGTTCCTTATTTAACTGTGCTAG | 0.6 z-score
GAACCTTCAGCTCTAGGTTCGTGCTAG | 0.189 z-score
GACGGACTGGACACTGTGGACGTGCTA | -0.393 z-score
TTAGGACTGGACTATCGGTCAGTGCTA | -0.283 z-score
TTAGGTTTCGGGTTTAGGTTAGTGCTA | 9.84 z-score
TTACGTCTCGGTATCGGTTAGTGCTAG | 7.49 z-score
TTAGATCACAGACTGGATTAGTGCTAG | -0.584 z-score
TCATCTCCCAGACTGGAACTGTGCTAG | 0.347 z-score
TGAGGTTCCCTTTTCCTTTAGTGCTAG | 0.809 z-score
TCGCCTTTTTTGTTGTTTTTGTGCTAG | 1.89 z-score
TTAGGTATCGACAATCGGTTAGTGCTA | 4.55 z-score
TTAGAACTGGCGACTGGATTAGTGCTA | -0.265 z-score
TTAGATTTCAGTTTCGTTTAGTGCTAG | 6.56 z-score
GACTGTTTCGGTTTCGGGACGTGCTAG | 8.87 z-score
GACGGTATCGACTTTCAGGACGTGCTA | 4.02 z-score
GACGGACTGGACAATCGGGACGTGCTA | -0.681 z-score
GACGGTATCGATACTGGGGACGTGCTA | 9.36 z-score
TTTCATTTATTTACTCTCTACGTGCTA | 6.12 z-score

Block 3
Target: Sal-like protein 4, full length isoform B (SALL4, Homo sapiens, UniProt Q9UJQ4-2, residues 1-616)
Method: universal PBM
Molecule type: double-stranded DNA, one strand shown
Sample: in vitro
Tested at: not given
Notes: 8-mer, flanks averaged, mean of replicates
Reading: higher = stronger binding
Construct (chain): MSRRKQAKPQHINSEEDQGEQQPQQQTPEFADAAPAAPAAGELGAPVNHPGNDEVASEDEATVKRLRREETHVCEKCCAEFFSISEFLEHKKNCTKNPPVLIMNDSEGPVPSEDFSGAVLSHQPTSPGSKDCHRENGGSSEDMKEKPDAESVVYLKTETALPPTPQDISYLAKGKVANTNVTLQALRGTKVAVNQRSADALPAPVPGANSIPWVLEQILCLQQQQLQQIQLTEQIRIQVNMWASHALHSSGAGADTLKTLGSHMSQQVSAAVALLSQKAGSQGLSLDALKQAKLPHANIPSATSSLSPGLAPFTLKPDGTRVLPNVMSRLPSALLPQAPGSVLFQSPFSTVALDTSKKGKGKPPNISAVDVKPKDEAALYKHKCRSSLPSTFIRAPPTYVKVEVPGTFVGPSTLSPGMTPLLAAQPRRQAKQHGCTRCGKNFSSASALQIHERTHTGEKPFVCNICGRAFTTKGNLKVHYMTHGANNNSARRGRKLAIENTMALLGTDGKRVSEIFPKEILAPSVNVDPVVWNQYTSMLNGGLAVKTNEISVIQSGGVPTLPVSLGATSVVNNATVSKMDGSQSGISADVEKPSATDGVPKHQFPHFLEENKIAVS
Oligonucleotide | E-score
CCGTATAA | 0.108
AGGCTGCC | -0.336
GTTAGCTA | -0.209
GCCCCGAC | -0.29
CTGGATCA | -0.0812
GGGCAGAC | -0.241
AGTGGTTA | 0.0815
AGGGCACG | -0.22
GTTTAAAA | 0.145
AGCCAGAT | 0.0445
CCTTAAAC | 0.0101
AAGTGTCA | 0.00046
TAAAAACA | 0.308
GAAAAACA | 0.141
CTGATGTA | 0.154
AACGAGGT | -0.142
CGGGCTGA | -0.348
TGTGGAAA | 0.234
CTGACTCA | -0.0856
AGCGGCAG | -0.267
CCCGAATA | 0.112
ACGCTCAT | 0.0316
ATGATTTC | 0.371
AGGAACCG | -0.202
ATAACGCC | 0.159

Block 4
Target: RNA binding protein fox-1 homolog 2, RRM domain, GST-SBP tag (RBFOX2, Homo sapiens, UniProt O43251-10, residues 100-194)
Method: RNA Bind-n-Seq
Molecule type: RNA
Sample: in vitro
Tested at: 365 nM
Notes: natural RNA segment, single round, ends assumed
Reference: no-protein control
Reading: higher = stronger binding
Constant ends, left off below: GGGAGUUCUACAGUCCGACGAUC … UGGAAUUCUCGGGUGCCAA
Target sequence (chain): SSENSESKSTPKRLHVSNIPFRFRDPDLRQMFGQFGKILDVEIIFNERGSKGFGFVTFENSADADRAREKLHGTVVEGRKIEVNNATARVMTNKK
Oligonucleotide | RBNS enrichment (R)
CUGCCACCAUUUUCAUUGCUUUCCCCAGCAGCAUGAUGGGAACCCAAGCUGAGGGAUACAGGUCCUGAUUUGGUAGGAAUAUUAUUCCCAAGAAAUACCCGCUCCUCACC | 16.7
UCUCUCAACUCUGAGGCCCUGGCCAGAUGUCCUCUGACUCUCCCAUCUCUCCCACCCGGCUCUAGGCCAAAAGGCUCGGUACCUCCUUACUGGGAGCCACGUAAAUGGAA | 0.46
GCUGCUUCACUUAGAUGCAGUGAGACACAUAGUUGGUGUUCCGAUUUUCACAUCCUUCCAUGUAUUUAUCUUGAAGAGAUAAGCACAGAAGAGAAGGUGCUCACUAACAG | 0.216
ACCUGGCAAACUUCUCUAGCAUGUGCUGAAUGGGAGUGUCAGCUGCCAGGGAGCCUUAGGACCCCAGGGCCCCCAGCUCCCACUGCCUAGGGAGCGAAGGAAGACGCUGC | 16.9
CCUGAUGGCACCCACACAGAGGACCUCUUUGGGGCAAGAUCCAGGUGGUCCCAUAGGUCUUGUGAAAAGGCUUUUUCAGGGAAAAAUAUUUUACUAGUCCAAUCACCCCC | 0.464
AAUAACUUAAUGUUUUGGACAUAUUUUGUCUACUUUUGAGAAUUAUUUUUAAUAUGUAAAUUCUCUCAAAAGGGUCAGGCACCUAGUUAUUAUUUUUUAAUGAUUAUGUG | 0.648
UGUGCACUUUGUGUUAAUCUCACCAAAAAUCAUCAUAGGAAAGGAUUAUGGUUUUUAGUUAUGACAUCACAAUGUGUCAAGAGUGGAACAAUAAACGUUUCCCUUGUGUU | 0.219
AAUCAGCCUUGGACAGUGCCGCCUUCCAGAGCAGAAUCACUGAGCCCCACGGCUGAAGCUGCAUCUGAUGAAACUGAUGGGUACUGCUUGUCCCUCAGCUCACACUUGGC | 0.34

For quick reference, copied from above (block 2):
Oligonucleotide | fitted relative affinity
GAACCTTCAGCTCTAGGTTCGTGCTAG | 0.189 z-score
TTAGGTATCGACAATCGGTTAGTGCTA | 4.55 z-score
GACGGTATCGACTTTCAGGACGTGCTA | 4.02 z-score
TTAGGTTTCGGGTTTAGGTTAGTGCTA | 9.84 z-score
GACTGTTTCGGTTTCGGGACGTGCTAG | 8.87 z-score
